Assay results from different studies.
Each numbered part is a random draw from the data of one study; scales do not carry over between parts.
Sequence of UniProt O15294 (whole entry, looked up): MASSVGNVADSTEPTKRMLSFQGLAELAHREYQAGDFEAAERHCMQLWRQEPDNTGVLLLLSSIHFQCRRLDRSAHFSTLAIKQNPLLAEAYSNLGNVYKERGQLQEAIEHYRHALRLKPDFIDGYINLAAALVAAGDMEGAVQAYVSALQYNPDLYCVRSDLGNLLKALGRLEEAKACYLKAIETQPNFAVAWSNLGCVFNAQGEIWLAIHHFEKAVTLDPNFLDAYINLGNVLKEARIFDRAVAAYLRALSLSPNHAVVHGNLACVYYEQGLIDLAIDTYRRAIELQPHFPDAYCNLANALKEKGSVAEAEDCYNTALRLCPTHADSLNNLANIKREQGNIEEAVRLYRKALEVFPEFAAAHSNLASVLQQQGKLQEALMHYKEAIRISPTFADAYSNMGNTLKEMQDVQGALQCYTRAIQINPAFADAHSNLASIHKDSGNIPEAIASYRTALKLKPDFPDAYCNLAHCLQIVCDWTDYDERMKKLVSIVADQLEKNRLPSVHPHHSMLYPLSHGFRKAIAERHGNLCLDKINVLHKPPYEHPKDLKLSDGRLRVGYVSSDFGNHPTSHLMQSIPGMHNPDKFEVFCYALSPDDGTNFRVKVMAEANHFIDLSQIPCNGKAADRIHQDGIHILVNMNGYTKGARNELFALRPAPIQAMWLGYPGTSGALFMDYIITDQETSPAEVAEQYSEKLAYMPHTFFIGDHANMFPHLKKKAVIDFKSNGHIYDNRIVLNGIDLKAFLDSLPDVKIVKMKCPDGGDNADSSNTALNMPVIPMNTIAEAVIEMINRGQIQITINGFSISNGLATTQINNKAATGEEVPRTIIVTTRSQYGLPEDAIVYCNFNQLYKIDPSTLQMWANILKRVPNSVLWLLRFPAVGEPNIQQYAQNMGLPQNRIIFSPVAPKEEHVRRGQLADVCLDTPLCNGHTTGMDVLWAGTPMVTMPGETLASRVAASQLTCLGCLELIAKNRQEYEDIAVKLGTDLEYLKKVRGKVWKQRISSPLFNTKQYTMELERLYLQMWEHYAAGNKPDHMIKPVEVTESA

Block 1
Target: Interferon regulatory factor 7, full length, phosphomimetic (IRF7, Homo sapiens, UniProt Q92985, residues 1-503, S101K/S471D/S472D/S475D/S476D/S477D/S483D/S484D/S487D)
Sequence of UniProt Q92985 (whole entry, unmodified, looked up): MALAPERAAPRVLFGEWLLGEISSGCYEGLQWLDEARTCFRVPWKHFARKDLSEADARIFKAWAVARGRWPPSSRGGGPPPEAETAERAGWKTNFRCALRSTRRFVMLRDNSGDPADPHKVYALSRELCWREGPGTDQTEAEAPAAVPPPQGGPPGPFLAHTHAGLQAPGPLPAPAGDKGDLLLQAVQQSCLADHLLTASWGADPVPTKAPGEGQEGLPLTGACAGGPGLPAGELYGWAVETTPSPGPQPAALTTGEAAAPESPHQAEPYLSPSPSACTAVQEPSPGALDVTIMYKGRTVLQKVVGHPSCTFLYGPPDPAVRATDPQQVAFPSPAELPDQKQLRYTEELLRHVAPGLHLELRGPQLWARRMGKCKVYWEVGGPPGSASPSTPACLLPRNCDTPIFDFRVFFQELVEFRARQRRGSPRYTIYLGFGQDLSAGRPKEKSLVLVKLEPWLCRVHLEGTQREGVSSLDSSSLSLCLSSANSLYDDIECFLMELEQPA
Technique: protein-binding microarray
Molecule type: double-stranded DNA, one strand shown
Matrix: in vitro
Concentration: 250 nM
Notes: 60-bp whole probe
Together with: salmon DNA 0.4 mg/ml
Baseline: random background probes
Reading: higher = stronger binding
All sequences stand within: GCCTAGCAC … GTCTTGATTCGCTTGACGCTGCTG
The log fluorescence of `CTAGGTATCCTTTTCCTTTAGTGCTAG` is reported as 2.2 z-score.
For `TTAGGTCTCCTTCCCCTTTAGTGCTAG`, the log fluorescence was 0.595 z-score.
`TCATGGCTCCCTATAAAACTGTGCTAG` has a log fluorescence of -0.515 z-score.
For `CACGGTATCGACACTGGGGACGTGCTA`, the log fluorescence was -0.108 z-score.
The log fluorescence of `GACGGACTGGGTATCTGGACGTGCTAG` is reported as -0.795 z-score.
For `TCACTGCTACCCTTTGAAACTGTGCTA`, the log fluorescence was -0.642 z-score.
For `TTAAGTTTCGGTATCGGTTAGTGCTAG`, the log fluorescence was 11.2 z-score.
With `TTAGGACTGGGACTGGTTTAGTGCTAG` the log fluorescence was -0.0142 z-score.

Block 2
Target: POU, POU domain (Salpingoeca helianthica)
Technique: Spec-seq
Molecule type: double-stranded DNA, one strand shown
Matrix: in vitro
Concentration: not given
Notes: whole probe, mean of replicates
Baseline: not given
Reading: lower = stronger binding
All sequences stand within: GAGTCGTCTCGTCAGCAC … CCGTAGAGCACTCAGGTC
Construct (chain): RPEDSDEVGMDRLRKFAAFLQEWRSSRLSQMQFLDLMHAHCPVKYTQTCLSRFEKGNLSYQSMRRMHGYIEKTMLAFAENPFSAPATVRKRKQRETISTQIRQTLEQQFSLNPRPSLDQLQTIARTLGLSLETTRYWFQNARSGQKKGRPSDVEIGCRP
For `ATGCCTGG`, “relative binding energy” read 1.33 ln ratio.
Under “relative binding energy”, `ATGACAAT` is recorded as 1.15 ln ratio.
`ATACCGAT`: “relative binding energy” 1.26 ln ratio.
`ATGCGCCT` — result for “relative binding energy”: 0.919 ln ratio.
`ATGACTAT`: “relative binding energy” 1.21 ln ratio.
`ATCTTCAT` — result for “relative binding energy”: 1.02 ln ratio.
For `GGAATAAT`, “relative binding energy” read 0.568 ln ratio.
`CTGCTAAT`: “relative binding energy” 0.697 ln ratio.

Block 3
Target: PABPC1L2, full length, GST fusion (mouse, UniProt A0ABA7IW68)
Technique: RNAcompete
Molecule type: RNA
Matrix: in vitro
Concentration: 20 nM
Notes: 7-mer, probes averaged, single round
Baseline: mean of 7-mers
Reading: higher = stronger binding
Target sequence (chain): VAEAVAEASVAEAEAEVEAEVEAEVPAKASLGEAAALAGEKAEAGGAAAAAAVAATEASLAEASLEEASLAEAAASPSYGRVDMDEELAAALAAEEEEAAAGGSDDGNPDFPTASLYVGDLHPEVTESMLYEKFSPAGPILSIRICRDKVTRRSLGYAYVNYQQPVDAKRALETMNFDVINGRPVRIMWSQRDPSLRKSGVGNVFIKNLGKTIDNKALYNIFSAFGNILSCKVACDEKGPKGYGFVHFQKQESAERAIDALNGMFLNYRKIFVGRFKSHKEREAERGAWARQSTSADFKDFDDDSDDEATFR
For `CUUCUGA`, the 7-mer Z-score was -0.369.
For `GGAUGAU`, the 7-mer Z-score was -0.0337.
`CGACAAC` has a 7-mer Z-score of -0.0536.
For `CCAUGAC`, the 7-mer Z-score was -0.249.
For `AAUUGAU`, the 7-mer Z-score was 0.166.
`UAACUGC` gave a 7-mer Z-score of -0.28.
With `CCGAGUC` the 7-mer Z-score was -0.277.
For `GCUAGCG`, the 7-mer Z-score was -0.05.

Other studies, line by line
`GRSDHTPHFEYRAHA` — result for “minimum log2 enrichment ratio”: 1.61 (UDP-N-acetylglucosamine--peptide N-acetylglucosaminyltransferase 110 kDa subunit (OGT, Homo sapiens, UniProt O15294); binding, phage display NGS; peptide; baseline: input library).
